Assay results from different studies.
Each line is one published result; not all experiments were run side by side. Numbers after ± are the reported error.

`CCCC[C@H](NC(=O)[C@@H](NC(=O)[C@H](CC(=O)O)NC(=O)[C@H](CCC(N)=O)NC(=O)[C@H](CC(C)C)NC(=O)[C@H](CC(C)C)NC(=O)[C@H](CCCN)NC(=O)[C@H](CCCNC(=N)N)NC(=O)[C@H](C)NC(=O)[C@H](CO)NC(=O)[C@H](CC(C)C)NC(=O)[C@H](CCC(N)=O)NC(=O)[C@H](CC)NC(=O)[C@H](CC(C)C)NC(=O)[C@@H](NC(=O)[C@H](CCCN)NC(=O)[C@H](CCCNC(=N)N)NC(=O)[C@H](Cc1ccc(O)cc1)NC(=O)[C@H](CO)NC(=O)[C@H](CCC(N)=O)NC(=O)[C@@H](NC(=O)[C@H](Cc1ccccc1)NC(=O)[C@@H](NC(=O)[C@H](C)NC(=O)[C@H](CC(=O)O)NC(=O)[C@H](C)NC(=O)CCc1ccc(O)cc1)[C@@H](C)CC)[C@@H](C)O)C(C)C)[C@@H](C)CC)C(=O)N[C@@H](CC(=O)O)C(=O)N[C@@H](CCCNC(=N)N)C(=O)NC` gave a relative potency of 69.6 (GH release; male rat, serum; subcutaneous, dose not given, 15 min; relative to: GHRH(1-29)NH2).
`Cc1cc(O)c(C=O)c2c1C(=O)Oc1c(CO)c(O)c3c(c1O2)C(O)OC3=O` (stereo not shown): “sperm with detached head” 5.83 ± 0.75% (rat, male, streptozotocin-induced diabetes, cauda epididymis; 10 mg/kg, 9 weeks).
For `CC(C)(C)c1ccc(-c2nnc(S)o2)cc1`, the IC50 was 94.4 ± 2.2 µM (nitric oxide scavenging).
The relative potency of `CCCC[C@H](NC(=O)[C@@H](NC(=O)[C@H](CC(=O)O)NC(=O)[C@H](CCC(N)=O)NC(=O)[C@H](CC(C)C)NC(=O)[C@H](CC(C)C)NC(=O)[C@H](CCCN)NC(=O)[C@H](CCCNC(=N)N)NC(=O)[C@H](C)NC(=O)[C@H](CO)NC(=O)[C@H](CC(C)C)NC(=O)[C@H](CCC(N)=O)NC(=O)[C@H](CC)NC(=O)[C@H](CC(C)C)NC(=O)[C@@H](NC(=O)[C@H](CCCN)NC(=O)[C@H](CCCNC(=N)N)NC(=O)[C@H](Cc1ccc(O)cc1)NC(=O)[C@H](CO)NC(=O)[C@H](CCC(N)=O)NC(=O)[C@@H](NC(=O)[C@H](Cc1ccccc1)NC(=O)[C@@H](NC(=O)[C@H](C)NC(=O)[C@H](CC(=O)O)NC(=O)[C@H](C)NC(=O)[C@H](Cc1ccc(O)cc1)NC)[C@@H](C)CC)[C@@H](C)O)C(C)C)[C@@H](C)CC)C(=O)N[C@@H](CC(=O)O)C(=O)N[C@@H](CCCNC(=N)N)C(=O)NC` is reported as 170 (GH release; male rat, serum; subcutaneous, dose not given, 15 min; relative to: GHRH(1-29)NH2).
`NCC(=O)N1CCC[C@H]1C(=O)NCC(=O)NCC(=O)O` gave an activation energy of 78 ± 8 kJ/mol (diketopiperazine formation, Arrhenius plot, ESI-MS; 1-propanol; 70, 80, 90 °C, 0.5% acetic acid).
The EC50 of `O=C1/C(=C/c2ccccc2)Oc2c1c(O)cc(O)c2-c1ccc(O)c(O)c1` is reported as 1.05 mM (ABTS scavenging, absorbance).
The H2O2 scavenging of `COc1ccc(NCc2cc(=O)c(O)c[nH]2)cc1` is reported as 67.2 ± 1.14% (0.312 mg/mL, 20 min).
Under liver weight, `CC(CCC(=O)NCc1ccc(C(=O)NO)cc1)C1CCC2C3C(O)CC4CC(O)CCC4(C)C3CCC12C` (stereo not shown) is recorded as “decreased” (PCK rats; oral gavage, 15 mg/kg/day, 5 months; relative to: untreated).
`COc1ccc(C2CC(c3ccc(C)cc3)=Nc3ccccc3S2)cc1OC` (stereo not shown) gave a total cholesterol of 147 mg/dL (Wistar rat, STZ-induced diabetes, serum; 10 mg/kg, 28 days).
`[2H]C([2H])([2H])C(c1cc2nnc(-c3cc(F)ccc3F)n2nc1OCc1ncnn1C)(C([2H])([2H])[2H])C([2H])([2H])[2H]` — result for “afterdischarge duration change”: -30% (amygdala-kindled Wistar rats, cortex; oral, 1 mg/kg, 2 h before stimulation; relative to: baseline).

A few entries again:
Under liver weight, `CC(CCC(=O)NCc1ccc(C(=O)NO)cc1)C1CCC2C3C(O)CC4CC(O)CCC4(C)C3CCC12C` (stereo not shown) is recorded as “decreased” (PCK rats; oral gavage, 15 mg/kg/day, 5 months; relative to: untreated).
